Measured values of several laboratories.
Each line is one published result; not all experiments were run side by side. Several values in a cell are separate wells, animals, samples, runs or records. ± marks the error that the study gave.

With `CCCCCCCC(=O)Oc1c(C)c(OC)c2c(c1C)OC(=O)[C@@H](CCCCCC)[C@]2(O)/C=C/c1ccccc1` (racemic) the selectivity index was 1.72 (SH-SY5Y; SRB; relative to: normal over SH-SY5Y IC50).
The mean TGI of `O=C(C[Se]C(=O)c1ccc2ccccc2c1)Nc1cccc(C(F)(F)F)c1` is reported as 3.57 µM (NCI60 renal subpanel; total growth inhibition, inhibitor; five-dose).
For `Cc1cc(NC2CCN(C)CC2)ccc1-c1cc2c(N3CCC[C@H](C(=O)N[C@@H](C)c4ccccc4)C3)ncnc2[nH]1`, the inhibition was 58.3% (NCI-H2228; cell growth or viability, MTT; 0.2 µg/mL, 72 h).
`Cc1cc(Cl)cc(-c2ccnc3cc(CN4C(=O)C5C(C4=O)C5(C)C)sc23)c1C[C@@H]1CNCCO1` (stereo partly shown) — result for “G1 phase cells”: 72.7% (CHP-212 resistant; PI flow cytometry; 0.3 µM, 24 h).
`O=C(C[Se]C(=O)c1ccccc1Nc1cccc(C(F)(F)F)c1)Nc1cccc(C(F)(F)F)c1` gave a GI50 of 1.89 µM (NCI60 renal subpanel; cell growth, inhibitor; five-dose).
`O=[N+]([O-])C(=C\Nc1ccccc1O)/C=N/c1ccccc1O` gave an Emax of 21% (LDR; silenced CMV-GFP reporter derepression, qHTS).
`O=C(C[Se]C(=O)c1ccccc1Nc1ccccc1)Nc1cccc(C(F)(F)F)c1` gave a GI50 of 1.83 µM (NCI60 renal subpanel; cell growth, inhibitor; five-dose).
`Cc1cc(NC2CCN(C)CC2)ccc1-c1cc2c(N3CCC[C@H](C(=O)Nc4ccc(C#N)cc4)C3)ncnc2[nH]1` gave an inhibition of 55.3% (NCI-H2228; cell growth or viability, MTT; 0.008 µg/mL, 72 h).
`COC1=C2CC(C)CC(OC)C(O)C(C)C=C(C)C(OC(N)=O)C(OC)C=CC=C(C)C(=O)NC(=CC1=O)C2=O` (stereo not shown) — result for “log fold change”: -1.15 (Rh30; ChIP-seq, measured: H3K36me3 peak; concentration not given, KLF2 TTS chr19:16435200-16441599; relative to: untreated control).
With `O=C(NCc1ccc(OC(F)(F)F)cc1)[C@H]1CCCN(c2ncnc3[nH]c(-c4ccccc4)cc23)C1` the inhibition was 43.8% (NCI-H2228; cell growth or viability, MTT; 0.2 µg/mL, 72 h).
`COc1ccc2c(c1)OC1=C(C(=O)CCC1)C2c1c[nH]c2ccccc12` (stereo not shown): mRNA level “decreased” (mouse preadipocytes; qPCR, measured: aP2; IC20, 14 days, adipogenic induction; relative to: untreated cells).
`COC(=O)c1cc(NC2=NC(=O)C(=Cc3ccc(N(C)C)cc3)S2)ccc1OC(C)=O` gave a fold change of 0.3 (MCF7; measured: RAD17 mRNA; 0.81 µM (IC50), 24 h; relative to: DMSO).
For `Cc1ccc(-n2cc(CSc3nc4ccccc4n3Cc3cn(-c4ccc(C)cc4)nn3)nn2)cc1`, the cytotoxicity was 87.8% (MDA-MB-231; MTT; 62.5 ppm).
The internalized fraction of `COc1cccc(OC)c1-c1cc(C(=O)NC2(C(=O)O)C3CC4CC(C3)CC2C4)nn1-c1ccc(C(=O)N(C)CCOCCN(C)C(=O)[C@H](CCCCNC(=O)[C@H](CC(C)C)NC(=O)C2OC2C(=O)O)NC(=O)CN2CCN(CC(=O)[O-])CCN(CC(=O)[O-])CCN(CC(=O)[O-])CC2)cc1C(C)C.[177Lu+3]` (mixture of isomers) is reported as 3.29 ± 0.21% (HT-29; concentration not given, 60 min; relative to: added activity).
Under “log2 fold change”, `Cn1ncc2cc(-c3cncc(Cl)c3N3CCC4(CCNC4=O)CC3)ccc21` is recorded as 2.76 (LS174T; gene expression, microarray, measured: LRRC19 mRNA; concentration not given, 4 h; relative to: untreated cells).
With `C1=[N+]2CCCC[N+]3=Cc4ccc5[n]4[Au-]23[n]2c1ccc2-c1nc2ccccc2nc1-5.F[P-](F)(F)(F)(F)F` the TGI was 4.41 -log M (SNB-75; NCI60 five-dose screen).
For `COc1ccc(NC(=O)C2CCCN(c3ncnc4[nH]c(-c5ccc(NC6CCN(C)CC6)cc5C)cc34)C2)cc1` (stereo not shown), the inhibition was 44.7% (NCI-H2228; cell growth or viability, MTT; 0.0003 µg/mL, 72 h).
`C=CC(=O)N1[C@H](c2ccc3c(c2)OCO3)c2[nH]c3ccccc3c2C[C@@H]1C(=O)NC` — result for “mean neuron degeneration”: 81.1% (rat DRG neurons; 0.004572 µM, 48 h, together with: vincristine 40 nM).
`COCCCCCNc1nc(NCCCCCCN(C)C)c2cc(NC(=O)/C=C/CN(C)C)ccc2n1` gave a viability of 0.916 and 0.977 (MCF7; CellTiter-Glo; 0.7812 µM, 72 h, unit not given; relative to: DMSO-treated cells).
The inhibition of `Cc1cc(NC2CCN(C)CC2)ccc1-c1cc2c(N3CCC[C@H](C(=O)Nc4cccc(Cl)c4)C3)ncnc2[nH]1` is reported as 44.3% (NCI-H2228; cell growth or viability, MTT; 0.008 µg/mL, 72 h).
Under “mean growth percent”, `O=C(C[Se]C(=O)C12CC3CC(CC(C3)C1)C2)Nc1cccc(C(F)(F)F)c1` is recorded as -66.6% (NCI60 renal subpanel; cell growth; 10 µM, 48 h, one-dose).
`COC(=O)c1cc(NC2=NC(=O)C(=Cc3ccc(C)cc3)S2)ccc1OC(C)=O` has a metabolite level of 0.77 fold change (MCF7; GC-MS, measured: Inosine; 1 µM; relative to: DMSO).
`O=C(NN1C(=O)c2ccccc2NC1c1ccc([N+](=O)[O-])o1)c1ccc([N+](=O)[O-])cc1` (stereo not shown) has an Emax of 113% (LDR; silenced CMV-GFP reporter derepression, qHTS).
`COc1ccc(CNc2ccc3c(c2)S(=O)(=O)C=C3)cc1` gave an MCP-1 secretion of 50% (U-87 MG, temozolomide-resistant; 5 µM, 24 h; relative to: control).
The pRSK/tubulin ratio of `CN(C)c1ccc(-n2cc(COC(=O)[C@]3(C)C=C(C(=O)OC(C)(C)C)C(=O)CC3)nn2)cc1` is reported as 0.153 (HeLa; quantitative western blot; concentration not given, 30 (unit not given), together with: EGF).
With `COc1ccccc1-c1ccncc1C(=O)Nc1ccc(OCc2ccc(Cl)cc2)nn1` the colony survival was 99.6% and 96.6% and 102% (DLD-1 BRCA2-/-; 5 µM; relative to: untreated).
`C(=N\Nc1nc(-c2ccccn2)nc2ccccc12)/c1ccccc1` gave an EC50 of 10 µM (LDR; silenced CMV-GFP reporter derepression, qHTS).
`CNS(=O)(=O)Nc1nccc(Cc2c(C)c3ccc(Oc4ncccc4F)cc3oc2=O)c1F` gave an IC50 of 0.681 µM (CHL-1; cell viability; 7 days).
`CC(C)c1ccc(N(C)c2ccc3c(c2)OCC[C@H]3CNc2cnccc2C(=O)O)cc1` gave an IC50 of at least 10 µM (HCC2935; cell growth or viability, ATP luminescence; 7 days).
`COc1ccc(NC(=O)c2ccc3[nH]c(-c4ccc(N(C)C)cc4)nc3c2)cn1` gave an extracellular HMGB1 of 4.59 (HCT-116; 6 h, unit not given; relative to: DMSO).
For `Cc1c(Cl)cccc1Nc1ccccc1C(=O)[Se]CC(=O)Nc1cccc(C(F)(F)F)c1`, the GI50 was 1.61 µM (NCI60 NSCLC subpanel; NCI60 five-dose screen).
The colony survival of `CO[C@@H]1[C@@H](OC(N)=O)[C@@H](O)[C@H](Oc2ccc3c(O)c(NC(=O)c4ccc(O)c(CC=C(C)C)c4)c(=O)oc3c2C)OC1(C)C` is reported as 22.9% (HCT-116 parental; 200 µM; relative to: untreated).
`Cc1cc(NC2CCN(C)CC2)ccc1-c1cc2c(N3CCC[C@H](C(=O)N4CCCCC4)C3)ncnc2[nH]1` has an inhibition of 3.4% (NCI-H2228; cell growth or viability, MTT; 0.008 µg/mL, 72 h).
`Cc1sc2c(c1C)C(c1ccc(Cl)cc1)=N[C@@H](CC(=O)NCC(=O)N1CCC3(CCC(C(=O)N4CCN(C(=O)c5cc(Cc6n[nH]c(=O)c7ccccc67)ccc5F)CC4)CC3)CC1)c1nnc(C)n1-2` — result for “cells in G1 phase”: 11% (NCI-H82; 100 nM, 24 h).
For `CC(=O)Oc1ccccc1C(=O)[Se]CC(=O)Nc1cccc(C(F)(F)F)c1`, the GI50 was 1.64 µM (NCI60 renal subpanel; cell growth, inhibitor; five-dose).
Under “log2 fold change”, `Cc1ncsc1-c1ccc(C(C)NC(=O)C2CC(O)CN2C(=O)C(NC(=O)CCCCCCCCCCN2CCCC(Nc3ncc(Cl)c(Nc4ccccc4S(=O)(=O)C(C)C)n3)C2)C(C)(C)C)cc1` (stereo not shown) is recorded as -2.93 (22Rv1; RNA-seq, measured: STARD13 mRNA; concentration not given; relative to: DMSO).
For `Cc1cc(NC2CCN(C)CC2)ccc1-c1cc2c(N3CCC[C@H](C(=O)NCc4ccc(Cl)nc4)C3)ncnc2[nH]1`, the inhibition was 6.86% (NCI-H2228; cell growth or viability, MTT; 0.008 µg/mL, 72 h).
`CCN(C(=O)c1cc(F)ccc1Oc1nncnc1N1CCC2(C1)CN([C@H](CCCN(C)CCOC)C(C)C)C2)C(C)C` has a GI50 of over 10 µM (NCI-H82; cell growth or viability; 72 h).
With `COc1ccc2c(C)nc(Nc3nc(O)cc(-c4ccccc4)n3)nc2c1` the EC50 was 3.16 µM (LDR; silenced CMV-GFP reporter derepression, qHTS).
Under c-MYC level, `Fc1cncc(-c2ccc3[nH]c4ncnc(N[C@H]5CC[C@H](N6CCOCC6)CC5)c4c3c2)c1` is recorded as “decreased” (TMD8 parental; immunoblot; concentration not given, 24 h).
The fold regulation of `CCN(CC)CC(=O)Nc1cccc(-n2cc(-c3ccc4ccc(-c5cn(-c6cccc(NC(=O)CN(CC)CC)c6)nn5)cc4c3)nn2)c1` is reported as 1.12 (RCC4; PCR array, measured: ENG; 5 x IC50, 2 h, normoxia; relative to: untreated).
Under “log2 fold change”, `CN1CCCNC(=O)c2cccc(c2)C(=O)NCCCN(C)CCCNc2cccc3c2C(=O)c2cccc(c2C3=O)NCCC1` is recorded as 2.41 (SAS; RNA-Seq, measured: ZNF596 mRNA; 1 µM, 6 h; relative to: untreated cells).
`CCc1nnc(NC(=O)c2cccc(C(=O)Nc3nnc(CC)s3)n2)s1` has an EC50 of 2.51 µM (LDR; silenced CMV-GFP reporter derepression, qHTS).
`CCn1nc(Cl)c2c1-c1cnc(N)c(c1)O[C@H](C)c1cc(F)ccc1-c1nn(C)cc1C2` has an Emax of 99.3% (Ba/F3 EML4-ALK v1, no mutation; cell viability).
`Cc1cc(N2CCCCC2)ccc1-c1cc2c(N3CCC[C@H](C(=O)NCc4ccc(OC(F)(F)F)cc4)C3)ncnc2[nH]1` has an inhibition of 90.8% (NCI-H2228; cell growth or viability, MTT; 5 µg/mL, 72 h).
The colony survival of `COc1ccccc1-c1ccncc1C(=O)Nc1nnc(OCc2ccc(Cl)cc2)s1` is reported as 0% (PEO1 BRCA2-mutant; 0.5 µM, together with: olaparib 2 µM).

Repeated from above:
For `Cc1ccc(-n2cc(CSc3nc4ccccc4n3Cc3cn(-c4ccc(C)cc4)nn3)nn2)cc1`, the cytotoxicity was 87.8% (MDA-MB-231; MTT; 62.5 ppm).
`COC1=C2CC(C)CC(OC)C(O)C(C)C=C(C)C(OC(N)=O)C(OC)C=CC=C(C)C(=O)NC(=CC1=O)C2=O` (stereo not shown) — result for “log fold change”: -1.15 (Rh30; ChIP-seq, measured: H3K36me3 peak; concentration not given, KLF2 TTS chr19:16435200-16441599; relative to: untreated control).
`CCn1nc(Cl)c2c1-c1cnc(N)c(c1)O[C@H](C)c1cc(F)ccc1-c1nn(C)cc1C2` has an Emax of 99.3% (Ba/F3 EML4-ALK v1, no mutation; cell viability).
`Cc1cc(NC2CCN(C)CC2)ccc1-c1cc2c(N3CCC[C@H](C(=O)N4CCCCC4)C3)ncnc2[nH]1` has an inhibition of 3.4% (NCI-H2228; cell growth or viability, MTT; 0.008 µg/mL, 72 h).
`CCc1nnc(NC(=O)c2cccc(C(=O)Nc3nnc(CC)s3)n2)s1` has an EC50 of 2.51 µM (LDR; silenced CMV-GFP reporter derepression, qHTS).
Under “log2 fold change”, `Cn1ncc2cc(-c3cncc(Cl)c3N3CCC4(CCNC4=O)CC3)ccc21` is recorded as 2.76 (LS174T; gene expression, microarray, measured: LRRC19 mRNA; concentration not given, 4 h; relative to: untreated cells).
